Assay results of several laboratories.
Compare with care: the assays were run in different laboratories. Values joined by “and” are separate records of one study, mostly repeats; a detail may differ. ± gives the spread as reported.
UniProt P08183, sequence (whole entry, looked up): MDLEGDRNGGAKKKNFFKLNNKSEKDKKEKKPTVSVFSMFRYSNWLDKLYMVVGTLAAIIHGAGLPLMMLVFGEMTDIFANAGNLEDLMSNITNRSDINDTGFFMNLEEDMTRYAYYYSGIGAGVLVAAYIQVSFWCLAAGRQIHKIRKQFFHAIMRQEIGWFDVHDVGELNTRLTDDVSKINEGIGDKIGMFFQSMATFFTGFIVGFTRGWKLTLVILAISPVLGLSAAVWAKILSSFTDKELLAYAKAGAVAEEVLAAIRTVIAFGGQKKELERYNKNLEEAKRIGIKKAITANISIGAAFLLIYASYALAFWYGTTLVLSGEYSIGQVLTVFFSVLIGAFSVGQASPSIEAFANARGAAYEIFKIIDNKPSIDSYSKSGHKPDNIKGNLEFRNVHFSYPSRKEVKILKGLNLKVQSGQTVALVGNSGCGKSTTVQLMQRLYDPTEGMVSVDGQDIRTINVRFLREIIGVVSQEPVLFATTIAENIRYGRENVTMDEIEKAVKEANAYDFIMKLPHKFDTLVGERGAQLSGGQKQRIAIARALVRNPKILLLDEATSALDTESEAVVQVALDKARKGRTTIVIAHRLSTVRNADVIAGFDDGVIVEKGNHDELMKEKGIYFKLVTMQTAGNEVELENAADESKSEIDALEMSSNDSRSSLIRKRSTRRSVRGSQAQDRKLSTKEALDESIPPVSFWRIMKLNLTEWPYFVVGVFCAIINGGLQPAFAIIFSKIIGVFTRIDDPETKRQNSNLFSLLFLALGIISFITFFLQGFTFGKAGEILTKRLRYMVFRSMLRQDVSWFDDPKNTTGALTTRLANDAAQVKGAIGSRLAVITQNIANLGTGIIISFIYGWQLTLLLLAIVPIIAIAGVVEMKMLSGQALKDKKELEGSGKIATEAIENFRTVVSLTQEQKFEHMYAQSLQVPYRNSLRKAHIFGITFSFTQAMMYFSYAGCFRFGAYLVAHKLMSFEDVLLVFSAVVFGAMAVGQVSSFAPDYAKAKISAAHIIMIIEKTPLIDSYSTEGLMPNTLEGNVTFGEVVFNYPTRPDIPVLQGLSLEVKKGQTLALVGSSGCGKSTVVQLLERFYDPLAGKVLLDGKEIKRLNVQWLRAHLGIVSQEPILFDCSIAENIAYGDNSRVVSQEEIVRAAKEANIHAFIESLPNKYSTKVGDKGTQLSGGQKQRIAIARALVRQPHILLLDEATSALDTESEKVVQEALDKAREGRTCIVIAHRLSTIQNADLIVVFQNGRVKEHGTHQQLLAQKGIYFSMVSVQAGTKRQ
UniProt P08684, sequence (whole entry, looked up): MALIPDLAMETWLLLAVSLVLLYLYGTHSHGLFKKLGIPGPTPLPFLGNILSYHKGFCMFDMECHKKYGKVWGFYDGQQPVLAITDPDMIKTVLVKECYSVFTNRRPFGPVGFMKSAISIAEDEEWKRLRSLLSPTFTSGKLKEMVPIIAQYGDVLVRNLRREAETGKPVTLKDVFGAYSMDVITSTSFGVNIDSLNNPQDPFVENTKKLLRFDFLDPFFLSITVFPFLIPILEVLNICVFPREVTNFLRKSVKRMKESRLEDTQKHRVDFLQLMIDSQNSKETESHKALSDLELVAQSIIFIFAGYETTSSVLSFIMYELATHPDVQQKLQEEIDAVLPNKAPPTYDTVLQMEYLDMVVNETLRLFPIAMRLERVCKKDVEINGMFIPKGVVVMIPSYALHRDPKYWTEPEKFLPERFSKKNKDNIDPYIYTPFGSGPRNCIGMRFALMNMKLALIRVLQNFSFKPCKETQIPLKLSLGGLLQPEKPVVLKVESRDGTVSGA

| SMILES | tested on | assay | system | conditions | how to read | endpoint | value |
| --- | --- | --- | --- | --- | --- | --- | --- |
| COc1cc2c(Oc3ccc4[nH]c(C)cc4c3F)ccnc2cc1OCC1(N)CC1 |  |  | paediatric recurrent refractory sarcoma | 8 mg |  | grade 1 or 2 mouth ulcer | 0% |
| CO[C@H]1/C=C/O[C@@]2(C)Oc3c(C)c(O)c4c(O)c(c(/C=N/N5CCN(C6CCCC6)CC5)c(O)c4c3C2=O)NC(=O)/C(C)=C\C=C\[C@H](C)[C@H](O)[C@@H](C)[C@@H](O)[C@@H](C)[C@H](OC(C)=O)[C@@H]1C | Aedes albopictus cells |  |  |  |  | CC50 | 145 µM |
| CN1CC[C@@H](c2c(O)cc(O)c3c(=O)cc(-c4ccc(C(F)(F)F)cc4Cl)oc23)[C@@H]1CO |  | refers to: Constipation | relapsed or refractory haematological malignancies | oral, dose not given, all arms |  | patients with adverse event | 17.5% |
| O=C(CCCN1CC=C(n2c(=O)[nH]c3ccccc32)CC1)c1ccc(F)cc1 | Plasmodium falciparum |  | Dd2 |  |  | IC50 | 10 µM |
| CO[C@H]1C[C@@H]2CC[C@@H](C)[C@@](O)(O2)C(=O)C(=O)N2CCCC[C@H]2C(=O)O[C@H]([C@H](C)C[C@@H]2CC[C@@H](OC(=O)NCCOCCOCCOCCOCCOCCOCCOCCOCCC(=O)N3CCc4cc(Cn5nc(-c6ccc7oc(N)nc7c6)c6c(N)ncnc65)ccc4C3)[C@H](OC)C2)C[C@@H](O)[C@H](C)/C=C(\C)[C@@H](O)[C@@H](OC)C(=O)[C@H](C)C[C@H](C)/C=C/C=C/C=C/1C |  |  | patients with advanced solid tumours | intravenous, 8 mg weekly, any grade |  | nausea incidence | 56.3% |
| CC1(C)[C@H](C(=O)OCc2cccc(Oc3ccccc3)c2)[C@@H]1C=C(Cl)Cl | human microsomal CES2 | IVIVE from expressed enzymes | human, 6 months old, expressed human CES2 | 0.1 µM | baseline: total hepatic CLint in vivo | relative enzyme contribution | 3.88% |
| CCC1(C2=NCCN2)Cc2ccccc2O1 (stereo not shown) | Plasmodium falciparum |  | Dd2 |  |  | IC50 | 10 µM |
| Oc1ccc(C(c2ccc(O)cc2)(C(F)(F)F)C(F)(F)F)cc1 | HepG2 spheroids, dissociated | annexin V-FITC/PI flow cytometry |  | 1 µM, 24 h |  | late apoptotic cells | 13.1 ± 2.59% |
| CC(C)CC(=O)OC[C@H]1O[C@@](C#N)(c2ccc3c(N)ncnn23)[C@H](O)[C@@H]1O | ATP-dependent translocase ABCB1 (ABCB1, Homo sapiens, UniProt P08183) | basolateral to apical transport | Caco-2 | 90 µM, 2 h, with: verapamil 100 µM |  | recovery | 90.8% |
| COc1cccc(-c2n[nH]c(SCc3ccccn3)n2)c1OC | Salmonella typhimurium | Ames test, plate incorporation | TA100 | 2.0 mg/plate, without S9 |  | revertant colonies per plate | 107 |
| [Cl-].[Cl-].[Pt+2].[Ru+2].c1ccc(-c2nc3ccccc3nc2-c2ccccn2)nc1.c1cnc2c(c1)ccc1cccnc12.c1cnc2c(c1)ccc1cccnc12 | Danio rerio |  | embryos | 45 µM, 0 h |  | survival rate | 100% |
| Cc1ncc2n1-c1ccc(Cl)cc1C(c1ccccc1F)=NC2 | Cytochrome P450 3A4 (CYP3A4, Homo sapiens, UniProt P08684) |  | human, plasma | oral, 2 mg, day 1, alone, arithmetic mean |  | CL/F | 104 L/h |
| CCCC[C@H](NC(C)=O)C(=O)N[C@@H](CO)C(=O)N[C@H](C(=O)N1CCC[C@H]1C(=O)N[C@@H](C)C(=O)N[C@@H](CCCNC(=N)N)C(=O)N[C@@H](CCCNC(=N)N)C(=O)N[C@@H](CCCNC(=N)N)C(=O)N[C@@H](CC(C)C)C(=O)N[C@@H](CCCC)C(=O)N[C@@H](CCCNC(=N)N)C(=O)N[C@@H](CC(=O)O)C(=O)N[C@@H](Cc1ccccc1)C(=O)N[C@@H](CCCCN)C(=O)N[C@@H](CCCNC(=N)N)C(=O)N[C@@H](CC(C)C)C(=O)N[C@@H](CCC(N)=O)C(N)=O)[C@@H](C)O | proteinase K | LC-MS |  | 25 µM, 122.9 min, pH 7.4 |  | remaining peptide | 0% |
| O=c1ccc2ccccc2o1 | HepaRG 3D spheroids | cell membrane permeability |  | concentration not given, 168 h, high-content imaging |  | response probability | 99.4% |
| Nc1ncnc2c([C@@H]3N[C@H](CO)[C@@H](O)[C@H]3O)c[nH]c12 | HeLa |  |  | 400 µM |  | cell number | 1780 and 2740 |
| CC(C)(c1ccc(O)cc1)c1ccc(O)cc1 | HepG2 spheroids, dissociated | annexin V-FITC/PI flow cytometry |  | 1 µM, 96 h |  | early apoptotic cells | 4.51 ± 1.59% |
| CC1(C)C(C=C(Cl)Cl)C1C(=O)OC(C#N)c1ccc(F)c(Oc2ccccc2)c1 (stereo not shown) | human cytosolic CES1 | IVIVE from expressed enzymes | human, liver, in vivo scaled | 0.1 µM, age-specific |  | enzyme contribution to CLint | 37.9% |
| O=[N+]([O-])c1ccc(N2CCN(CCC(O)c3ccc(F)cc3)CC2)c(C(F)(F)F)c1 (stereo not shown) | Salmonella typhimurium | SOS response, SOS/umu test | TA1535/pSK1002, TGA medium | 0.000244 mg/mL, 4 h, with: 10% rat liver S9 | baseline: untreated | induction factor | 1 |
| Cc1cc(C(=O)NC(C)(C)COc2cccc3c2C(N)=NS(=O)(=O)N3)cc(C)n1 | Salmonella typhimurium | Ames test, initial | TA1537 | 5.00 µg/plate | baseline: solvent control | revertant ratio | 1 |
| OCc1ncc2n1-c1ccc(Cl)cc1C(c1ccccc1F)=NC2 | CYP3A4 | substrate | human, plasma | oral, 2 mg midazolam, day 1, cocktail with binimetinib and encorafenib |  | AUC(0-t) | 173 ng·h/mL |
| CC(=O)N1CCC(C(=O)N2CCN3C(=O)c4cc(-c5ccccc5)ccc4NC(=O)C3C2)CC1 (stereo not shown) | Escherichia coli |  | WP2 uvrA | 1.58 µg/plate, without S9 |  | revertants per plate | 23.5 |
| CC(C)C[C@H](NC(=O)[C@H](C)NC(=O)[C@@H](NC(=O)[C@H](CCCNC(=N)N)NC(=O)[C@H](CC(C)C)NC(=O)[C@H](Cc1c[nH]c2ccccc12)NC(=O)[C@@H]1CCCN1C(=O)[C@@H](N)CCCCN)C(C)C)C(=O)N[C@@H](CS)C(=O)N1CCC[C@H]1C(=O)NCC(=O)O | H9c2 | WST-1 |  | 64 µM, 24 h |  | viability | 92.1% and 103% and 87.2% |
